Assay results from different studies.
Values joined by “and” are separate records of one study, mostly repeats; a detail may differ. Numbers after ± are the reported error.

Structure (SMILES) | target or system | assay | test system | conditions | scale | endpoint | value
COC1CN([C@H]2CC[C@H]([C@@]3(C)Oc4c(Cl)cc(C(=O)NCc5c(SC)cc(C)[nH]c5=O)c(C)c4O3)CC2)C1 |  | RNA-seq, refers to: BEND7 | human, whole blood | dose not given, 24 h | reference: pretreatment baseline | log2 fold change | 7.69
COc1cccc2c(-c3ccc(O)c4c3CCN=C4)ccc(OC(C)C)c12 | Plasmodium falciparum | asexual parasite proliferation, SYBR Green I fluorescence | clinical isolate SB_05, Mozambique |  |  | IC50 | 356 ± 21 nM
Cc1ccc(Nc2n[nH]c3nc(-c4ccncc4)nc(N)c23)cc1 | rhinovirus B42 | viral cytopathic effect | HeLa |  |  | IC50 | 70 nM
CC(C)(C)NCC(SS(=O)(=O)O)c1ccccc1 (centres unmarked) | Schistosoma mansoni |  | infected mouse | 200 mg/kg, 1368 h | reference: vehicle | spleen weight reduction | 55%
CSc1ccc(Nc2n[nH]c3nc(-c4ccccc4)nc(N)c23)cc1 | rhinovirus B42 | viral cytopathic effect | HeLa |  |  | IC50 | 10 nM
C=C(NC(=O)c1csc(-c2nc3c(cc2O)-c2nc(cs2)C(=O)NC(C(C)O)C(=O)NC(=C(C)OC)c2nc(cs2)C(=O)NC2c4nc(cs4)C(=O)NC(COC(=O)c4c5c6c(cccc6n4O)COC(=O)C(OC4CC(C)(O)C(N(C)C)C(C)O4)C2OC5)c2nc-3cs2)n1)C(N)=O (centres unmarked) | Streptococcus pneumoniae |  | -4, immunocompromised mice, lung infection | 2 mg/kg/day, twice daily, 24 h post-dose |  | lung bacterial load | 4.38 log CFU/g
Cc1cccc2c1N(C(=O)n1ccnn1)CC2 | Arabidopsis thaliana |  | kai2 mutant | 3 µM, 72 h |  | germination rate | 73.4%
Cc1ncsc1-c1ccc(CNC(=O)[C@@H]2C[C@H](O)CN2C(=O)[C@@H](NC(=O)CN2CCN(C3CN(CCNC(=O)C[C@@H]4N=C(c5ccc(Cl)cc5)c5c(sc(C)c5C)-n5c(C)nnc54)C3)CC2)C(C)(C)C)cc1 | Spodoptera frugiperda | degrader, targeted LC-MS, refers to: BRD3 | Sf9 | 0.001 µM |  | protein level | 166% and 127% and 151% and 162%
O=C(O)c1ccc(O)c(O)c1 | Streptomyces coelicolor | RT-PCR |  | 2 mM, 1 h |  | pcaH mRNA level | increased
CC[C@H](C)[C@H](NC(=O)[C@H](Cc1ccc(O)cc1)NC(=O)[C@H](CCC(=O)O)NC(=O)CNC(=O)[C@H](CCC(=O)O)NC(=O)[C@H](CCCCN)NC(=O)[C@H](CCCCN)NC(=O)[C@H](CC(=O)O)NC(=O)[C@H](Cc1c[nH]cn1)NC(=O)[C@H](Cc1c[nH]cn1)NC(=O)[C@H](Cc1c[nH]cn1)NC(=O)[C@H](Cc1c[nH]cn1)NC(=O)[C@H](Cc1c[nH]cn1)NC(=O)[C@H](Cc1c[nH]cn1)NC(=O)[C@H](Cc1c[nH]cn1)NC(=O)[C@H](Cc1c[nH]cn1)NC(=O)[C@H](Cc1c[nH]cn1)NC(=O)[C@@H](N)Cc1c[nH]cn1)C(=O)N[C@@H](CCCCN)C(=O)N[C@@H](CC(C)C)C(=O)N[C@@H](CCCCN)C(=O)N[C@H](C(=O)N[C@H](C(=O)NCC(=O)N[C@@H](CCC(N)=O)C(=O)N[C@@H](CC(=O)O)C(=O)N[C@@H](CO)C(=O)N[C@@H](CO)C(=O)N[C@@H](CCC(=O)O)C(=O)N[C@H](C(=O)N[C@@H](Cc1c[nH]cn1)C(=O)N[C@@H](Cc1ccccc1)C(=O)N[C@@H](CCCCN)C(=O)N[C@H](C(=O)N[C@@H](CCCCN)C(=O)N[C@@H](CCSC)C(=O)N[C@H](C(=O)N[C@H](C(=O)N[C@@H](Cc1c[nH]cn1)C(=O)N[C@@H](CC(C)C)C(=O)N[C@@H](CCCCN)C(=O)N[C@@H](CCCCN)C(=O)N[C@@H](CC(C)C)C(=O)N[C@@H](CCCCN)C(=O)N[C@@H](CCC(=O)O)C(=O)N[C@@H](CO)C(=O)N[C@@H](Cc1ccc(O)cc1)C(=O)N[C@@H](CS)C(=O)N[C@@H](CCC(N)=O)C(=O)N[C@@H](CCCNC(=N)N)C(=O)N[C@@H](CCC(N)=O)C(=O)O)[C@@H](C)O)[C@@H](C)O)C(C)C)[C@@H](C)CC)[C@@H](C)CC)C(C)C | Drosophila melanogaster |  | α-synuclein A53T transgenic | 120 µM, 11 days post eclosion, unit not given | reference: untreated | climbing mean difference | -28
Nc1nc(-c2ccccc2)nc2[nH]nc(Nc3cccnc3)c12 | rhinovirus B42 | viral cytopathic effect | HeLa |  |  | IC50 | 1030 nM

Excerpt of the above:
Structure (SMILES) | target or system | assay | test system | conditions | scale | endpoint | value
CSc1ccc(Nc2n[nH]c3nc(-c4ccccc4)nc(N)c23)cc1 | rhinovirus B42 | viral cytopathic effect | HeLa |  |  | IC50 | 10 nM
C=C(NC(=O)c1csc(-c2nc3c(cc2O)-c2nc(cs2)C(=O)NC(C(C)O)C(=O)NC(=C(C)OC)c2nc(cs2)C(=O)NC2c4nc(cs4)C(=O)NC(COC(=O)c4c5c6c(cccc6n4O)COC(=O)C(OC4CC(C)(O)C(N(C)C)C(C)O4)C2OC5)c2nc-3cs2)n1)C(N)=O (centres unmarked) | Streptococcus pneumoniae |  | -4, immunocompromised mice, lung infection | 2 mg/kg/day, twice daily, 24 h post-dose |  | lung bacterial load | 4.38 log CFU/g
